Published values collected from several papers.
Several values in a cell are separate wells, animals, samples, runs or records.

CC(C)C[C@H](NC(=O)[C@H](Cc1ccc(O)cc1)NC(=O)[C@@H](CCCNC(=N)N)NC(=O)[C@@H](CO)NC(=O)[C@H](Cc1ccccc1)NC(=O)[C@H](CC1CCCCC1)NC(=O)[C@H](CC(=O)O)NC(=O)CN1CCN(CC(=O)O)CCN(CC(=O)O)CCN(CC(=O)O)CC1)C(=O)N[C@@H](Cc1c[nH]c2ccccc12)C(=O)N[C@@H](CO)C(=O)O [copper-64 labelled] — activity concentration (human, stomach contents; concentration not given, 1 h): 3180 Bq/mL and 6590 Bq/mL and 4270 Bq/mL and 4960 Bq/mL and 3620 Bq/mL and 5080 Bq/mL
CC1(C)[C@H](NC(=O)/C(=N\OCCN)c2csc(N)n2)C(=O)N1OS(=O)(=O)O — MIC (Enterobacter cloacae; agar dilution; ATCC 43560, susceptible): 1 µg/mL
COc1cc(C(=O)Nc2ccc(C(=O)O)c(O)c2OC)ccc1NC(=O)c1ccc(NC(=O)[C@H](Cc2c[nH]nn2)NC(=O)c2ccc(NC(=O)/C(C)=C/c3ccc(O)cc3)cc2)cc1 — MIC (Enterococcus faecium; broth microdilution; ciprofloxacin-sensitive): 4 µg/mL
CC1(C)[C@H](NC(=O)/C(=N\OCCN)c2nsc(N)n2)C(=O)N1OS(=O)(=O)O — MIC (Enterobacter cloacae; agar dilution; CDC 1000654): > 64 µg/mL
COc1c(NC(=O)c2ccc(NC(=O)[C@H](Cc3c[nH]nn3)NC(=O)c3ccc(NC(=O)/C(C)=C/c4ccc(O)cc4)cc3)cc2)ccc(C(=O)Nc2ccc(C(=O)O)c(O)c2)c1O — MIC (Enterococcus faecium; broth microdilution; ciprofloxacin-resistant): 16 µg/mL
O=CCNCCOn1c(=O)n(OCCNCCO)c(=O)n(OCCNCCOn2c(=O)n(OCCNCCO)c(=O)n(OCCNCCO)c2=O)c1=O — MIC (Staphylococcus epidermidis; microbial growth, broth dilution): 1 µg/mL
CCOc1c(NC(=O)c2ccc(NC(=O)c3ccc(NC(=O)[C@H](Cc4c[nH]nn4)NC(=O)c4ccc(NC(=O)/C(C)=C/c5ccc(O)cc5)cc4)cc3)c(OC)c2O)ccc(C(=O)O)c1O — MIC (Enterococcus faecium; broth microdilution; ciprofloxacin-sensitive): 0.063 µg/mL
CO[C@H]1[C@H](O)[C@@H](N)[C@@H](O[C@H]2[C@H](O[C@@H]3O[C@H](CO)[C@@H](O[C@H]4O[C@@H](CN)[C@@H](O)[C@H](O)[C@H]4N)[C@H]3O)[C@@H](O)[C@H](N)C[C@@H]2N)O[C@@H]1CO — MIC (Mycolicibacterium smegmatis; microbial growth, broth dilution; 72 h): 16 to 32 µg/mL
CC(=O)NC[C@H]1CN(c2ccc(N3CCN(C(=O)CN)CC3)c(F)c2)C(=O)O1 — MIC (Enterobacter cloacae; clinical isolate): > 128 µM
CC1(C)[C@H](NC(=O)/C(=N\OCC(=O)N2CCC[C@@H]2C(=O)O)c2nsc(N)n2)C(=O)N1OS(=O)(=O)O — MIC (Enterobacter cloacae; agar dilution; CDC 1000654): > 64 µg/mL
C/C(=C\c1ccc(O)cc1)C(=O)Nc1ccc(C(=O)N[C@@H](Cc2c[nH]nn2)C(=O)Nc2ccc(C(=O)Nc3ccc(C(=O)Nc4ccc(C(=O)O)c(O)c4)c(O)c3)cc2)cc1 — MIC (Enterococcus faecium; broth microdilution; ciprofloxacin-resistant): 16 µg/mL
CC1(C)C(NC(=O)C(=NOC2(C(=O)O)CCC2)c2csc(N)n2)C(=O)N1OS(=O)(=O)O (stereo not drawn) — MIC (Enterobacter cloacae; agar dilution; ATCC 43560, susceptible): 0.125 µg/mL
CNS(=O)(=O)Nc1nccc(Cc2c(C)c3ccc(Oc4ncccc4F)cc3oc2=O)c1F — IC50 (KMS-28BM; cell viability; 7 days): > 1 µM
C=C(NC(=O)c1csc(-c2nc3c(cc2O)-c2nc(cs2)C(=O)NC(C(C)O)C(=O)NC(=C(C)OC)c2nc(cs2)C(=O)NC2c4nc(cs4)C(=O)NC(COC(=O)c4c5c6c(cccc6n4O)COC(=O)C(OC4CC(C)(O)C(N(C)C)C(C)O4)C2OC5)c2nc-3cs2)n1)C(N)=O (stereo not drawn) — MIC (Staphylococcus aureus; ATCC 43300 MRSA): 0.0156 µg/mL
CNC(C)C1CCC(N)C(OC2C(N)CC(N)C(OC3OCC(C)(O)C(NC)C3O)C2O)O1 (stereo not drawn) — MIC (Staphylococcus epidermidis; microbial growth, broth dilution; 12228): 1 µM
CC[C@H](C)[C@@H]1NC(=O)[C@@H]([C@@H](C)O)NC(=O)CNC(=O)[C@H](CC(=O)O)NC(=O)CNC(=O)[C@H](CC(=O)O)NC(=O)CNC(=O)[C@H]2CCCCN2C(=O)[C@@H](NC(=O)[C@H](CC(=O)O)NC(=O)/C=C/CCCCCCCCCC(C)C)CNC(=O)[C@@H]2CCCN2C1=O — MIC (Enterococcus; broth microdilution; VRE 155, Mueller-Hinton broth, Mg2+ 10 mg/L; 16 h, added: Ca2+ 2.5 mM): 4 µg/mL
Nc1ncc(-c2cc(-c3cnn(CC(F)(F)F)c3)ncc2F)nc1C(=O)NC1CNCC(F)C1 (stereo not drawn) — remaining binding (IRAK3; KINOMEscan; 1 µM; reference: control): 0%
CO[C@H]1/C=C/O[C@@]2(C)Oc3c(C)c(O)c4c(c3C2=O)C2=NC3(CCN(CC(C)C)CC3)NC2=C(NC(=O)/C(C)=C\C=C\[C@H](C)[C@H](O)[C@@H](C)[C@@H](O)[C@@H](C)[C@H](OC(=O)c2cccnc2)[C@@H]1C)C4=O — MIC (Mycobacteroides abscessus; Bamboo clinical isolate; 90% growth inhibition): 0.023 µM
COCOC[C@H]1O[C@H](O[C@H]2[C@H](O[C@@H]3O[C@H](CO)[C@@H](O[C@H]4O[C@@H](CN)[C@@H](O)[C@H](O)[C@H]4N)[C@H]3O)[C@@H](O)[C@H](N)C[C@@H]2N)[C@H](N)[C@@H](O)[C@@H]1OCOC — MIC (Mycolicibacterium smegmatis; microbial growth, broth dilution; 72 h): > 256 µg/mL
Cc1nn(-c2cccc(N)c2)c(=O)c2cnc(Nc3ccc(N4CCNCC4)cc3)nc12 — IC50 (Receptor-type tyrosine-protein kinase FLT3 (FLT3, Homo sapiens, UniProt P36888); kinase activity, inhibitor, SelectScreen kinase profiling): > 10 µM
CC1(C)C(NC(=O)C(=NOC2(C(=O)O)CC2)c2csc(N)n2)C(=O)N1OS(=O)(=O)O (stereo not drawn) — MIC (Enterobacter cloacae; agar dilution; CDC 1000654): 2 µg/mL
NC[C@@H]1O[C@H](O[C@H]2[C@@H](O)[C@H](O[C@@H]3[C@@H](O)[C@H](N)C[C@H](N)[C@H]3O[C@H]3O[C@@H]4COCO[C@H]4[C@H](O)[C@H]3N)O[C@@H]2CO)[C@H](N)[C@@H](O)[C@@H]1O — MIC (Mycolicibacterium smegmatis; microbial growth, broth dilution; 72 h): 128 µg/mL
COc1c(NC(=O)c2ccc(NC(=O)c3ccc(NC(=O)[C@H](Cc4c[nH]nn4)NC(=O)c4ccc(NC(=O)/C(C)=C/c5ccc(O)cc5)cc4)cc3)c(OC)c2O)ccc(C(=O)O)c1O — MIC (Enterococcus faecium; broth microdilution; ciprofloxacin-sensitive): 0.25 µg/mL
CCCCCCCCCCCCCCCCCCn1cc(CN(CCC(=O)NCCN(CCC(=O)NCCN(CCC(=O)NCCN(C)C)CCC(=O)NCCN(C)C)CCC(=O)NCCN(CCC(=O)NCCN(C)C)CCC(=O)NCCN(C)C)CCC(=O)NCCN(CCC(=O)NCCN(CCC(=O)NCCN(C)C)CCC(=O)NCCN(C)C)CCC(=O)NCCN(CCC(=O)NCCN(C)C)CCC(=O)NCCN(C)C)nn1 — MIC (Enterobacter cloacae; broth microdilution; 111, LB broth; 18 h): > 96 µg/mL
CC(C)(O/N=C(\C(=O)N[C@@H]1C(=O)N(OS(=O)(=O)O)C1(C)C)c1nsc(N)n1)C(=O)O — MIC (Enterobacter cloacae; agar dilution; ATCC 43560, susceptible): 32 µg/mL
COc1nc(C(=O)Nc2ccc(C(=O)O)c(O)c2OC)ccc1NC(=O)c1ccc(NC(=O)[C@H](Cc2c[nH]nn2)NC(=O)c2ccc(NC(=O)/C(C)=C/c3ccc(O)cc3)cc2)cc1 — MIC (Enterococcus faecium; broth microdilution; ciprofloxacin-resistant): 8 µg/mL
Cc1c(CN(C)C(=O)/C=C/c2cnc3c(c2)CC(N)C(=O)N3)oc2ccccc12 (stereo not drawn) — MIC (Enterobacter cloacae; microbial growth, broth dilution): 16 µg/mL
CC1C=CC=CC(C)C2C=CC3CC(C)(O)C(Cl)C(C)C3C2C(=O)C(Cl)(Cl)C(=O)C(C)C(=O)O1 (stereo not drawn) — MIC (Staphylococcus aureus; MRSA clinical isolate; resistant: OXA,CLI,ERY): 0.025 µg/mL
CC1(C)[C@H](NC(=O)/C(=N\OCC(=O)N2CCC(C(=O)O)C2)c2nsc(N)n2)C(=O)N1OS(=O)(=O)O (stereo partly drawn) — MIC (Enterobacter cloacae; agar dilution; CDC 1000654): > 64 µg/mL
CN[C@H](CC(C)C)C(=O)N[C@H]1C(=O)N[C@@H](CC(N)=O)C(=O)N[C@H]2C(=O)N[C@H]3C(=O)N[C@H](C(=O)N[C@H](C(=O)O)c4cc(O)cc(O)c4-c4cc3ccc4O)[C@H](O)c3ccc(c(Cl)c3)Oc3cc2cc(c3O[C@@H]2O[C@H](CO)[C@@H](O)[C@H](O)[C@H]2O[C@H]2C[C@](C)(NCc3ccc(-c4ccc(Cl)cc4)cc3)[C@H](O)[C@H](C)O2)Oc2ccc(cc2Cl)[C@H]1O — MIC (Enterococcus faecium; VanA VRE ATCC BAA-2317; added: LTA 100 µg/mL and Mg2+ 100 µg/mL): 5 µg/mL
COc1c(NC(=O)c2ccc(NC(=O)c3ccc(NC(=O)[C@H](CC#N)NC(=O)c4ccc(NC(=O)/C(C)=C/c5ccc(O)cc5)cc4)cc3)c(OC)c2O)ccc(C(=O)O)c1O — MIC (Enterococcus faecium; broth microdilution; ciprofloxacin-sensitive): 2 µg/mL
C=CC(=O)Nc1cccc(Cn2ncc3cnc(Nc4cnn(CCOC)c4)nc32)c1 — percent of control (PFTK1 human; binding, KINOMEscan; 100 nM; lower = stronger binding): 100%
COc1nc(C(=O)Nc2ccc(C(=O)O)nc2OC)ccc1NC(=O)c1ccc(NC(=O)[C@H](Cc2c[nH]nn2)NC(=O)c2ccc(NC(=O)/C(C)=C/c3ccc(O)cc3)cc2)cc1 — MIC (Enterococcus faecium; broth microdilution; ciprofloxacin-resistant): 64 µg/mL
CC1(C)[C@H](NC(=O)/C(=N\OC2(C(=O)O)CC2)c2nsc(N)n2)C(=O)N1OS(=O)(=O)O — MIC (Enterobacter cloacae; agar dilution; ATCC 43560, susceptible): 0.5 µg/mL
CCCCCCC#Cc1cncc(-c2nnc(SCc3cc([N+](=O)[O-])cc([N+](=O)[O-])c3)n2C)c1 — MIC (Enterobacter cloacae; microbial growth, broth dilution; DSM30054): > 64 µg/mL
Cc1ncsc1-c1ccc(C(C)NC(=O)C2CC(O)CN2C(=O)C(NC(=O)CCCCCCCCCCN2CCCC(Nc3ncc(Cl)c(Nc4ccccc4S(=O)(=O)C(C)C)n3)C2)C(C)(C)C)cc1 (stereo not drawn) — log2 fold change (22Rv1; RNA-seq, refers to: ZBTB24 mRNA; concentration not given; reference: DMSO): -1.06
C=C/C=C(\C)CC[C@@H](O)C[C@H](O)CC(=O)OC — MIC (Salmonella enterica; microbial growth, broth dilution; ATCC14028 TYPHIMURIUM): 128 µg/mL
NC[C@@H]1O[C@H](O[C@H]2[C@@H](O)[C@H](O[C@@H]3[C@@H](O)[C@H](N)C[C@H](N)[C@H]3O[C@H]3O[C@H](CO)[C@@H](OCC(O)CO)[C@H](O)[C@H]3N)O[C@@H]2CO)[C@H](N)[C@@H](O)[C@@H]1O (stereo partly drawn) — MIC (Mycolicibacterium smegmatis; microbial growth, broth dilution; 72 h): 2 µg/mL
COC1CN([C@H]2CC[C@H]([C@@]3(C)Oc4c(Cl)cc(C(=O)NCc5c(SC)cc(C)[nH]c5=O)c(C)c4O3)CC2)C1 — log2 fold change (RNA-seq, refers to: PRSS23 mouse homolog; mouse, HT-1376 xenograft, whole blood; dose not given; reference: vehicle): 1.06

Some of these lines once more:
Cc1c(CN(C)C(=O)/C=C/c2cnc3c(c2)CC(N)C(=O)N3)oc2ccccc12 (stereo not drawn) — MIC (Enterobacter cloacae; microbial growth, broth dilution): 16 µg/mL
COc1c(NC(=O)c2ccc(NC(=O)c3ccc(NC(=O)[C@H](Cc4c[nH]nn4)NC(=O)c4ccc(NC(=O)/C(C)=C/c5ccc(O)cc5)cc4)cc3)c(OC)c2O)ccc(C(=O)O)c1O — MIC (Enterococcus faecium; broth microdilution; ciprofloxacin-sensitive): 0.25 µg/mL
CC1(C)C(NC(=O)C(=NOC2(C(=O)O)CCC2)c2csc(N)n2)C(=O)N1OS(=O)(=O)O (stereo not drawn) — MIC (Enterobacter cloacae; agar dilution; ATCC 43560, susceptible): 0.125 µg/mL
CCOc1c(NC(=O)c2ccc(NC(=O)c3ccc(NC(=O)[C@H](Cc4c[nH]nn4)NC(=O)c4ccc(NC(=O)/C(C)=C/c5ccc(O)cc5)cc4)cc3)c(OC)c2O)ccc(C(=O)O)c1O — MIC (Enterococcus faecium; broth microdilution; ciprofloxacin-sensitive): 0.063 µg/mL
CNC(C)C1CCC(N)C(OC2C(N)CC(N)C(OC3OCC(C)(O)C(NC)C3O)C2O)O1 (stereo not drawn) — MIC (Staphylococcus epidermidis; microbial growth, broth dilution; 12228): 1 µM
